Published values collected from several papers.
Numbered parts are unrelated; each lists some results of a single study.

Sample 1
Target: Histone acetyltransferase KAT6A, winged helix 1, GST fusion (KAT6A, Homo sapiens, UniProt Q92794, residues 1-85)
Technique: protein binding microarray
Molecule type: double-stranded DNA, one strand shown
Medium: in vitro
Tested at: not given
Setting: 8-mer, flanks averaged, mean of 2 arrays, mostly near background
Baseline: not given
Reading: higher = stronger binding
Target sequence (chain): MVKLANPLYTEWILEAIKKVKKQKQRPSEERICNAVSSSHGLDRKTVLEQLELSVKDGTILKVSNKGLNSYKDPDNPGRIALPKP
The E-score of `GATGGTAA` is reported as -0.156.
`CTCATTTC` gave an E-score of -0.201.
The E-score of `ACTAGGGG` is reported as -0.0654.
`AGCGTATA` has an E-score of 0.11.
With `ACCGGTCC` the E-score was 0.227.
With `AGTTGCCC` the E-score was 0.0143.
For `CGTAATAA`, the E-score was 0.105.
`ATCTTACG` gave an E-score of 0.193.
`AATTTCGA` has an E-score of -0.149.
With `AAGGTCTC` the E-score was 0.0196.
For `CCCTTAGC`, the E-score was 0.137.
`TGCGTCAA` gave an E-score of 0.00785.
With `AGAGGGAG` the E-score was -0.237.
The E-score of `CTCGCCCC` is reported as 0.0366.
With `CTAGCAAG` the E-score was -0.223.
`ATGGACTC` has an E-score of 0.0272.
`CTCCTTCC` has an E-score of -0.091.
`AATGCTAA` has an E-score of -0.145.
The E-score of `ACAAATGA` is reported as -0.27.
With `AACAGGGT` the E-score was -0.321.
`AACGAGGG` gave an E-score of -0.201.
For `CTTCTGTA`, the E-score was -0.151.
`ATTGGGCC` gave an E-score of -0.0493.
With `AGCCCAGA` the E-score was -0.134.

Sample 2
Target: Centromere-binding protein 1, full length, His-tagged (CBF1, Saccharomyces cerevisiae, UniProt P17106, residues 1-351)
Chain of UniProt P17106 (whole entry, looked up): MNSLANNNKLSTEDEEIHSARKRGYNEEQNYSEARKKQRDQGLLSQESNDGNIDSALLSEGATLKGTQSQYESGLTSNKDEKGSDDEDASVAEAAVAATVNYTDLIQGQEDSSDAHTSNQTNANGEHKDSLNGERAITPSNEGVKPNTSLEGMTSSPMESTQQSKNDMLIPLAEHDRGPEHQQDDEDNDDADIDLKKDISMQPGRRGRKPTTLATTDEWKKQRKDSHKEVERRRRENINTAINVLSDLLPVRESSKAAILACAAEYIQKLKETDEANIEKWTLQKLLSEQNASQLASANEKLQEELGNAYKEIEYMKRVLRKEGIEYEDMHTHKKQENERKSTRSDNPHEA
Technique: competition protein-binding microarray
Molecule type: double-stranded DNA, one strand shown
Medium: in vitro
Tested at: 2 µM
Setting: whole 60-bp probe, lowest competitor level
Together with: Pho4 competitor, 0.05 µM
Reading: higher = stronger binding
`CTACCGTCAAATATACACGTGTAGTCCCTGGATTTGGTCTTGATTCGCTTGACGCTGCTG` gave a fluorescence intensity of 1250 a.u.
`GACTTTTCGAGCCTTTATGACCGGATAAAAAGCCTAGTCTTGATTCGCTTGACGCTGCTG` gave a fluorescence intensity of 58 a.u.
`CAGAGGAACGAGATAAACGTGCGATCCCTTCAATAAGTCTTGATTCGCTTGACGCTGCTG` has a fluorescence intensity of 73.9 a.u.
The fluorescence intensity of `CTTCTGTAAATTTGGGTGGTGGGTGGACGCGCCCCGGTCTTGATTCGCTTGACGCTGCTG` is reported as 74.2 a.u.
`TCCACCAACGATGGGTCCGTGACGAATGGTTCAACGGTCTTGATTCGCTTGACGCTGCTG` has a fluorescence intensity of 95.1 a.u.
`TGGTCAGACGCAGCGGGCGTGCTTTTGGACTGCTTGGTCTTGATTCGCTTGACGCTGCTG` gave a fluorescence intensity of 52.2 a.u.
For `AAAGCGGTAATTTGTCTAGTGGGTGCAGATATCTATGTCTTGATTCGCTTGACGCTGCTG`, the fluorescence intensity was 81.3 a.u.
The fluorescence intensity of `AAATTACTAAGTTGTATAGTGGGTGACGCCGTATGAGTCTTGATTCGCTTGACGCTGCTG` is reported as 60.2 a.u.
`CTTTCCCGATCTTTTCACGTGCCTTTAGCACATTTGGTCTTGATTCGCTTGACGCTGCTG` has a fluorescence intensity of 911 a.u.
`CTTTCCCGATCTTGAGCGGTGGGTGTAGCACATTTGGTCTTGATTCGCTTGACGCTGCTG` gave a fluorescence intensity of 67.2 a.u.
For `AAATTACTAAGTTGTCTAGTGGGTGACGCCGTATGAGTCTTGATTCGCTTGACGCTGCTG`, the fluorescence intensity was 62.3 a.u.
With `TAGTATCTTGCATTGCACGGGCTTTATATTGAGCAAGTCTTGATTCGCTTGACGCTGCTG` the fluorescence intensity was 93.8 a.u.
For `CCGGTTTTGTAGGACTAGGTGTGTTCAGTGGTGGCTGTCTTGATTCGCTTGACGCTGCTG`, the fluorescence intensity was 64.3 a.u.
With `GGCCTTCAGGCTTTGCACGCTAGCACACACCTTGGCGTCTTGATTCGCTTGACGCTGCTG` the fluorescence intensity was 55.5 a.u.
`GTCTTGTCTCATTGTAGGGTGGGTGTCCCCACTTCAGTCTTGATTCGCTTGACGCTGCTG` has a fluorescence intensity of 57.4 a.u.
The fluorescence intensity of `CATACCCAACCTTGGCATGTGGGTGAAGATATTTGTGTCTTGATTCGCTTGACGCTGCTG` is reported as 95.8 a.u.
For `TCTGATGTGTAAACTCATGTGGTGCACTGGTGTTGTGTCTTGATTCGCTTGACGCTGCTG`, the fluorescence intensity was 79.2 a.u.
The fluorescence intensity of `TATTTTCTCAGCCGTCACGTGCGATAAAAAAGTCAAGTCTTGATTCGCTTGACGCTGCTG` is reported as 7780 a.u.
`TCTAACTGGGCCCTTCACGTTTCTGACAATAGTTCTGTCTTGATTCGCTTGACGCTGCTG` gave a fluorescence intensity of 91.3 a.u.
The fluorescence intensity of `CCGACCACTGGGATCCACATGTCCTTGTCTCTCAGGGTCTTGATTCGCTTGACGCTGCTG` is reported as 80.3 a.u.
`TGCGCAACAACTTGTCACGCAACTTTATGTCTAGAAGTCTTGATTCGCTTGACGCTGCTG` has a fluorescence intensity of 135 a.u.

Sample 3
Target: RNA binding protein fox-1 homolog 2, RRM domain, GST-SBP tag (RBFOX2, Homo sapiens, UniProt O43251-10, residues 100-194)
Technique: RNA Bind-n-Seq
Molecule type: RNA
Medium: in vitro
Tested at: 365 nM
Setting: natural RNA segment, single round, ends assumed
Baseline: no-protein control
Reading: higher = stronger binding
Residues (chain): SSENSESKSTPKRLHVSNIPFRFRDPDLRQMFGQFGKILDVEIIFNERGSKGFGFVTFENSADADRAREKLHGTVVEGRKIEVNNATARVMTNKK
`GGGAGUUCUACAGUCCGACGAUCAGUGGCACAAUCUCGGCUCACUGCAGCCUCCGCCUGCCGGGUCAAGCGAUUCUCCUACCUCAGCCUCCUCAGUAGCUGAGAUUACAGGCAUGCACCACCAUGCCCGGCUAUGGAAUUCUCGGGUGCCAA` — result for “RBNS enrichment (R)”: 0.333.
Under “RBNS enrichment (R)”, `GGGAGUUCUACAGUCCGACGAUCACCGGCCCGCCUCCAUCCAAAAUCACGCUCGCGUGCUUCGGAAGCAUCCGGGUCACUCCUUCUCCGCUUUUUCUUGCAGAUGGGCCUAGGCCGGUGUCGGUUCUGUUUCUUGGAAUUCUCGGGUGCCAA` is recorded as 0.263.
For `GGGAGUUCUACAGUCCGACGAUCAAUGAAAAAGAAAAGAUAGCCUUGGACUUUUUUUUCAUGGGAGGUUUGGAGGUCAAGCAUGUAGAAGGAAAAGGCUGUAGUCAUGAAUAUAGAACUGUCUGCUCUCCACCUGGAAUUCUCGGGUGCCAA`, “RBNS enrichment (R)” read 3.21.
Under “RBNS enrichment (R)”, `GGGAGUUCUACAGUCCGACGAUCAAGAAGAGGAAGAGAAAAUGCCUGCUGUUGUAAAUGUCGGAGCCCCUCGUUCUCGGUCCUGCCUGGAACCUUUGUACGCUUUGCUCAAAAAUCAGCGAGCCUUCGCAUUUUGGAAUUCUCGGGUGCCAA` is recorded as 0.767.
For `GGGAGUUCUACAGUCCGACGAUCAUAGCUAAAGCCUGAAGAUAUCUUCAGAAAACACAUCUGGGAUGUAUCCCAUGUUCCCAGAAAGCUGUGUACUAGUUAAAAACUCUUUUGUCAAGGGGUAGGGAUAGUGGUGGAAUUCUCGGGUGCCAA`, “RBNS enrichment (R)” read 0.309.
Under “RBNS enrichment (R)”, `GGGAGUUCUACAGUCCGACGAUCUAUCCCUACAAUGUACUGACAGUUCUUACAGUUGAGAUUUGUUCUUUUCAGCUAUUGCUUGUGAAAAAAAGCAAGACUAUGUCACUCUAUAGAAGGCUGUUAAAGUGACUUGGAAUUCUCGGGUGCCAA` is recorded as 0.411.
`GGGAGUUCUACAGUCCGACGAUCCUGGGCUGGGGACCAGGAAGAAGUCACAAGUGGUGGGAGUAUCCUAGGGACAUGAGUCGUGCCCAGGGUAUAAACCCAAACCUGGUCAUUUCUUGAACAGUCUGUGAAUAUGGAAUUCUCGGGUGCCAA`: “RBNS enrichment (R)” 0.487.
`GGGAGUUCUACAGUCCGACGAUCAGUGGUCAGCAGCUGUUCCUAGCCUGUGAGCCGAAAGCAAAUCAGAAUUUAUAAAUCACAUCUCAUCAAUACUAACAAAUGACAUUUUGAAAGGAAAGAUUGGGUUGCAUUGGAAUUCUCGGGUGCCAA`: “RBNS enrichment (R)” 0.25.
`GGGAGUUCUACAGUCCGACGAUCGUUGUGGAAAAUCUGGAUCAUUGACCUCUGUGCUUUCAUUCCUAGAGAUGUUUUAUAGUUACAUGAGCAAAAGCUGUUGCCCCAAAGUGAUGGCCCUGGAGGCGGGGCUGUGGAAUUCUCGGGUGCCAA`: “RBNS enrichment (R)” 0.571.
`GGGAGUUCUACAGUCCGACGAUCUUAUUCAGGAAAAAAACUGAGCAGCUCUGGCCAGCAGCAAGGUUUCUUCUCUACUGCCCCAACUAUUGUGUGGCCUCUUGUGCUGAAAUCUCUGGCUUCAGAGCCUGAAAUGGAAUUCUCGGGUGCCAA`: “RBNS enrichment (R)” 0.309.
`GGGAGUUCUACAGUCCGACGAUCUAUAGUCCUUCAAUAGGAAAUUGUAAUUAAAAUAUAAUUUUAUAGAACCAUUUUUAUGUAAUCUGAUUUGAAUGUUAUAGUUGAUAAUAAUAAAAUCACUUACUUGGUUGUGGAAUUCUCGGGUGCCAA` — result for “RBNS enrichment (R)”: 0.607.
Under “RBNS enrichment (R)”, `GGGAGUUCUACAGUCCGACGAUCGCACAUUUUUGAGUUUUCCCACAUUAUUUGUCUCCAUGAUACCACUCAAGCAGUGUGCUGGACCUAAAAUACUGACUUUAGUUAGUAUCCUUGGAUUUUUAGAUUCCCAGUGGAAUUCUCGGGUGCCAA` is recorded as 0.339.

Sample 4
Target: Sal-like protein 4, full length isoform A (SALL4, Homo sapiens, UniProt Q9UJQ4, residues 1-1053)
Chain of UniProt Q9UJQ4 (whole entry, looked up): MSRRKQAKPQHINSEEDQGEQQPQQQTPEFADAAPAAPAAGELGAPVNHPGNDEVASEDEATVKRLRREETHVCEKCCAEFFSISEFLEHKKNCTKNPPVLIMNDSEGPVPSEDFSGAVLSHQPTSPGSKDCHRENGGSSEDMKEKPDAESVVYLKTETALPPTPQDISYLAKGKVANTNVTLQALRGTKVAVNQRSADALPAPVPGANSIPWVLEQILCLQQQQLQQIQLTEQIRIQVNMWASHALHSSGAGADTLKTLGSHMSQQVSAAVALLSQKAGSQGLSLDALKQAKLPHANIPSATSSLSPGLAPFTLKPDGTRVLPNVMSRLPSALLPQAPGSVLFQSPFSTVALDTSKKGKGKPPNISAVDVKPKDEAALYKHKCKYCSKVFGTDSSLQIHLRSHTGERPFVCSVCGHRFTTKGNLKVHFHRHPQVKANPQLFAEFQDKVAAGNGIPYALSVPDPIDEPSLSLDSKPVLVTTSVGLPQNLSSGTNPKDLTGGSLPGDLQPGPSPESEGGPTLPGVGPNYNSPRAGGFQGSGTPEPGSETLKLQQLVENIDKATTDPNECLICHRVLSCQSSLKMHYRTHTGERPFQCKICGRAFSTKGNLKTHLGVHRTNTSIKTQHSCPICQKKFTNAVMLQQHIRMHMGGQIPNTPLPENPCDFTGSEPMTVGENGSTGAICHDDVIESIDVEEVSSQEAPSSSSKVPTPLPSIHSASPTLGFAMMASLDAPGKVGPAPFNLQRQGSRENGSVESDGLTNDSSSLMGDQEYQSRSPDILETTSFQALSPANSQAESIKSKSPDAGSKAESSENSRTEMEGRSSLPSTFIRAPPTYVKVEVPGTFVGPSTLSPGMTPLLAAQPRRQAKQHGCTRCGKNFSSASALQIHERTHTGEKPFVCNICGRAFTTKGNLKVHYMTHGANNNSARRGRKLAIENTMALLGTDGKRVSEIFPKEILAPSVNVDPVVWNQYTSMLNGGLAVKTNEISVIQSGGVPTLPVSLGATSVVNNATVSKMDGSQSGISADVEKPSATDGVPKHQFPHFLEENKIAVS
Technique: universal PBM
Molecule type: double-stranded DNA, one strand shown
Medium: in vitro
Tested at: 600 nM
Setting: 8-mer, flanks averaged, mean of replicates
Reading: higher = stronger binding
`AAAATGGC` has an E-score of 0.165.
The E-score of `CTTAGCGC` is reported as -0.15.
`CACGTACA` has an E-score of 0.0264.
The E-score of `ACCGTTGC` is reported as -0.279.
For `AGCAGGCG`, the E-score was -0.242.
For `GTTTGGCA`, the E-score was -0.0123.
`CGAGGAGC` has an E-score of -0.32.
For `AAATTTTG`, the E-score was 0.29.
The E-score of `ACTGTTGC` is reported as -0.0682.
`GTGCGAGA` gave an E-score of -0.00609.
`ACGGCTCG` has an E-score of -0.235.
`AACACCGG` gave an E-score of -0.087.
The E-score of `ACAGATCA` is reported as -0.0247.
With `AACATGTT` the E-score was 0.19.
For `CTCCTACA`, the E-score was 0.0183.
With `CGATTCCC` the E-score was -0.106.
The E-score of `CTTGGTGA` is reported as -0.0328.
For `CACCATGC`, the E-score was -0.321.
